Experimental data from different studies.
Numbered parts are unrelated; each lists some results of a single study.

Sample 1 — technique: protein binding microarray; molecule type: double-stranded DNA, one strand shown; sample: in vitro; concentration: not given; relative to: not given; reading: higher = stronger binding
Target: Histone acetyltransferase KAT6A, both winged helices, GST fusion (KAT6A, Homo sapiens, UniProt Q92794, residues 1-181)
Setting: 8-mer, flanks averaged, mean of 2 arrays, mostly near background
Residues (chain): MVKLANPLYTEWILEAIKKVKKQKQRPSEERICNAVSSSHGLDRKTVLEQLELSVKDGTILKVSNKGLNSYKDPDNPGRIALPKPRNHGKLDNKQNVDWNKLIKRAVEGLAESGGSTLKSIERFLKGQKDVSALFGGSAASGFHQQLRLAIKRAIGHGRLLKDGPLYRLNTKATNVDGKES
`CAGTCCGA` has an E-score of 0.125.
For `CTACCATC`, the E-score was -0.0667.
`GCCTGCTA` has an E-score of -0.0944.

Sample 2 — technique: universal PBM; molecule type: double-stranded DNA, one strand shown; sample: in vitro; concentration: 600 nM; reading: higher = stronger binding
Target: Sal-like protein 4, full length isoform A (SALL4, Homo sapiens, UniProt Q9UJQ4, residues 1-1053)
UniProt Q9UJQ4, sequence (whole entry, looked up): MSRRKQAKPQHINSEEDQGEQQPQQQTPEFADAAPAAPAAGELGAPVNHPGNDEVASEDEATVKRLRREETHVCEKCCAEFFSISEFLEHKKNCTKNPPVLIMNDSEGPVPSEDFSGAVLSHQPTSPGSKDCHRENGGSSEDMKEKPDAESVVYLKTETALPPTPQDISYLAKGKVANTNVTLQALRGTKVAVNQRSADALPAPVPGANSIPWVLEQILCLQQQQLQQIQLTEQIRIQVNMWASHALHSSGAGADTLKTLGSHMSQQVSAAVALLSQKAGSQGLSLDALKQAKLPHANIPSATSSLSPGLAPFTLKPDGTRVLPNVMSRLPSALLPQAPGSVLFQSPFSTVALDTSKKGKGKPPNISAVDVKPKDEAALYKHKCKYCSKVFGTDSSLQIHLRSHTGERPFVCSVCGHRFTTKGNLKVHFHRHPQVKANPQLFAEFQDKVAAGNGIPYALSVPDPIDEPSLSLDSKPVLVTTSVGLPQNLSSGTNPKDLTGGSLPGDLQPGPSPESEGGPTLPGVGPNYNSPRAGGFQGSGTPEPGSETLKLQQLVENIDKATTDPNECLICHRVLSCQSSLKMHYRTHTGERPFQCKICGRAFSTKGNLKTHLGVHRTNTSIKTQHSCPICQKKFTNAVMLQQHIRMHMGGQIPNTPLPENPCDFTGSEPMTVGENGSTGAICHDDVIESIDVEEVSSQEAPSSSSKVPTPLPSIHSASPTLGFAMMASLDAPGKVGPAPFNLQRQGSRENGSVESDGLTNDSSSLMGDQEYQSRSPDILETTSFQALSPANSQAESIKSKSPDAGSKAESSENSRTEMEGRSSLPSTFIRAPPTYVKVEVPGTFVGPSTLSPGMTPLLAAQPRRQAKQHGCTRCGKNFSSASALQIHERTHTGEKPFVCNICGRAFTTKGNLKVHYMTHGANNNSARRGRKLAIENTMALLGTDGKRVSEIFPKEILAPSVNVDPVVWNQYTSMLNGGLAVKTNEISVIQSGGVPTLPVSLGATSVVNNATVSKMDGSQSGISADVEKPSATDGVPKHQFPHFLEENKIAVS
Setting: 8-mer, flanks averaged, mean of replicates
The E-score of `CAGACCCG` is reported as -0.276.
With `AAGGAGCG` the E-score was -0.16.
For `CGACGCCG`, the E-score was -0.405.
The E-score of `TGATGGCA` is reported as 0.0311.

Sample 3 — target: Sox-I, HMG box (Salpingoeca helianthica); technique: Spec-seq; molecule type: double-stranded DNA, one strand shown; sample: in vitro; concentration: not given; setting: whole probe, mean of replicates; relative to: not given; reading: lower = stronger binding
Construct (chain): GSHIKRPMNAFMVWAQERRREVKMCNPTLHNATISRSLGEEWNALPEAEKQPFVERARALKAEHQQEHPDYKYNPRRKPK
For `GAGTCGTCTCGTCAGCACGTGAGTTCCGTAGAGCACTCAGGTC`, “relative binding energy” read 0.693 ln ratio.
`GAGTCGTCTCGTCAGCACTTTTGTTCCGTAGAGCACTCAGGTC`: “relative binding energy” -2.18 ln ratio.
Under “relative binding energy”, `GAGTCGTCTCGTCAGCACGCTGGTTCCGTAGAGCACTCAGGTC` is recorded as 0.988 ln ratio.
`GAGTCGTCTCGTCAGCACAATCGTTCCGTAGAGCACTCAGGTC`: “relative binding energy” -1.83 ln ratio.

Further values, each from its own experiment
`PhoQ, residues 284 288 289 292 302 303 SIHMAM` has a fold induction of 40 (PhoP, residues 12 14 15 18 19 IQSYL (Escherichia coli, UniProt P23836); Sort-seq, measured: YFP reporter; E. coli; PhoQ-PhoP variant library, added: 10 µM Mg2+; relative to: high Mg2+ state, higher = stronger signaling).

Excerpt of the above (sample 2):
The E-score of `CAGACCCG` is reported as -0.276.
With `AAGGAGCG` the E-score was -0.16.
